Measured values from different studies.
Each line is one published result; not all experiments were run side by side. “And” joins repeats or separate records; there may be more than shown. pIC50: −log10 of the molar value.
Sequence of UniProt Q8TD19 (whole entry, looked up): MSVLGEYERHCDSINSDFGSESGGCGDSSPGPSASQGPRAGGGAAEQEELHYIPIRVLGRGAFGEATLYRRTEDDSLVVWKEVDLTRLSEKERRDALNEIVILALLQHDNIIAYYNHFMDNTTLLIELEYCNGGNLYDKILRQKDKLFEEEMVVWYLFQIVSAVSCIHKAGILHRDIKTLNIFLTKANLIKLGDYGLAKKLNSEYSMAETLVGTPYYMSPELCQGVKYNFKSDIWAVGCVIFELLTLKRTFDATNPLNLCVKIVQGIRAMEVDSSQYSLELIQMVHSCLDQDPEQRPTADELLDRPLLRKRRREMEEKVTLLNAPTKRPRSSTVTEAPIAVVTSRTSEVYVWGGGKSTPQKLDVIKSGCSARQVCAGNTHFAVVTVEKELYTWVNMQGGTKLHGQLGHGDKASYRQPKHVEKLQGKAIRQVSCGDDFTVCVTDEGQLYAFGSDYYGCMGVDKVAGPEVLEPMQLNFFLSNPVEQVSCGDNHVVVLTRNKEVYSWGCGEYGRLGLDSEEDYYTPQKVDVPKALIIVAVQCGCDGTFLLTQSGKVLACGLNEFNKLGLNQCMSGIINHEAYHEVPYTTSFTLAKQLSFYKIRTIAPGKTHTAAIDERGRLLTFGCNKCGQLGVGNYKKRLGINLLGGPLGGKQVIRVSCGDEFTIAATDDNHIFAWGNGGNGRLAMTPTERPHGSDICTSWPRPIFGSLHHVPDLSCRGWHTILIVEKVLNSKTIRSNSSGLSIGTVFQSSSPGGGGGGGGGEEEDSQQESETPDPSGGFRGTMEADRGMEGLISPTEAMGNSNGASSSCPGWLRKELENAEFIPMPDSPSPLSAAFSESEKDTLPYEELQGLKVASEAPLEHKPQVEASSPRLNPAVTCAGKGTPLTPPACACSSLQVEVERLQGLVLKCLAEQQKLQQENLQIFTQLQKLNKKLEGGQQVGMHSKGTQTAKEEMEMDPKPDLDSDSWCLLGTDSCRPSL

Compound	tested on	assay	system	conditions	scale	measurement	value
C=CC(=O)Nc1cccc(Cn2ncc3cnc(Nc4cnn(CCOC)c4)nc32)c1	PRKD2 human	binding, KINOMEscan	–	100 nM	lower = stronger binding	percent of control	100%
CC12CCCC(NS(=O)(=O)c3cccs3)(C1)C1CC(C)(C)C1CC2 (stereo not drawn)	HT-29	cell growth or viability, CCK-8	–	50 µM	–	inhibition	96.1%
COc1cc(C(=O)N2CC[C@@H](O)[C@@H](N)C2)cc2nc(-c3cc4cccnc4n3CC3CC3)n(C)c12	human neutrophils	protein citrullination, inhibitor, flow cytometry, refers to: citrullinated histone H3	–	316 pM, with: ionomycin	–	inhibition	4.58% and 17.5% and 6.52% and 11.1%
Nc1ncc(-c2cc(-c3cnn(CC(F)(F)F)c3)ncc2F)nc1C(=O)NC1CNCC(F)C1 (stereo not drawn)	TRKB	KINOMEscan competition binding	–	1 µM	baseline: DMSO control	remaining binding	34%
C[C@@H]1CC[C@@H]([C@](O)(COCc2ccccc2)Cn2cnc3ccccc32)[C@H](OCc2ccccc2)C1	A2780	cell growth or viability, MTT	–	10 µM, 72 h	–	inhibition	98.3%
COC1CN([C@H]2CC[C@H]([C@@]3(C)Oc4c(Cl)cc(C(=O)NCc5c(SC)cc(C)[nH]c5=O)c(C)c4O3)CC2)C1	–	RNA-seq, refers to: KREMEN1 mouse homolog	mouse, HT-1376 xenograft, whole blood	dose not given	baseline: vehicle	log2 fold change	0.2
CC12CCCC(n3cc(-c4ccccc4)nn3)(C1)C1CC(C)(C)C1CC2 (stereo not drawn)	HT-29	cell growth or viability, CCK-8	–	50 µM	–	inhibition	< 50%
Cc1nn(-c2cccc(N)c2)c(=O)c2cnc(Nc3ccc(N4CCNCC4)cc3)nc12	Serine/threonine-protein kinase Nek9 (NEK9, Homo sapiens, UniProt Q8TD19)	enzyme activity, inhibitor	–	–	–	pIC50	< 5.00
COc1ccc(COC[C@](O)(CNCc2ccccc2)[C@@H]2CC[C@@H](C)C[C@H]2OCc2ccc(OC)cc2)cc1	A2780	cell growth or viability, MTT	–	30 µM, 72 h	–	inhibition	101%
CCC(=CCc1c(O)cc2c(c1O)C(=O)CC(c1cccc(O)c1OC)O2)CC (stereo not drawn)	HeLa	cell growth or viability, MTT	–	1.563 µM, 48 h	–	inhibition	0.07%
CC12CCCC(NS(=O)(=O)c3ccc(N)cc3)(C1)C1CC(C)(C)C1CC2 (stereo not drawn)	HT-29	cell growth or viability, CCK-8	–	50 µM	–	inhibition	98.1%
CCC(=CCc1c(O)cc2c(c1O)C(=O)CC(c1cccc(O)c1)O2)CC (stereo not drawn)	HeLa	cell growth or viability, MTT	–	25 µM, 48 h	–	inhibition	45.3%
C=CC(=O)N1[C@H](c2ccc3c(c2)OCO3)c2[nH]c3ccccc3c2C[C@@H]1C(=O)N1CCN(C)CC1	human cyclin E1 N112C-3xFLAG:CDK2	co-IP with TMT proteomics, refers to: DDX5	–	concentration not given, P17844	baseline: wild type DMSO	relative co-enrichment	130%
COc1ccc(CNC[C@@](O)(COCc2ccc(F)cc2)[C@@H]2CC[C@@H](C)C[C@H]2OCc2ccc(F)cc2)cc1	A2780	cell growth or viability, MTT	–	10 µM, 72 h	–	inhibition	95.1%
CCC(=CCc1c(O)cc2c(c1O)C(=O)CC(c1cc(O)ccc1OC)O2)CC (stereo not drawn)	HeLa	cell growth or viability, MTT	–	12.5 µM, 48 h	–	inhibition	17.2%

Excerpt of the above:
Compound	tested on	assay	system	conditions	scale	measurement	value
COc1ccc(CNC[C@@](O)(COCc2ccc(F)cc2)[C@@H]2CC[C@@H](C)C[C@H]2OCc2ccc(F)cc2)cc1	A2780	cell growth or viability, MTT	–	10 µM, 72 h	–	inhibition	95.1%
CCC(=CCc1c(O)cc2c(c1O)C(=O)CC(c1cc(O)ccc1OC)O2)CC (stereo not drawn)	HeLa	cell growth or viability, MTT	–	12.5 µM, 48 h	–	inhibition	17.2%
